# Assay results gathered from unrelated publications.
# A part holds a random share of what one study measured.

# Series 1
# Target: Histone acetyltransferase KAT6A, both winged helices, GST fusion (KAT6A, Homo sapiens, UniProt Q92794, residues 1-181)
# Technique: protein binding microarray
# Molecule type: double-stranded DNA, one strand shown
# Matrix: in vitro
# Tested at: not given
# Notes: 8-mer, flanks averaged, mean of 2 arrays, mostly near background
# Relative to: not given
# Reading: higher = stronger binding
# Residues (chain): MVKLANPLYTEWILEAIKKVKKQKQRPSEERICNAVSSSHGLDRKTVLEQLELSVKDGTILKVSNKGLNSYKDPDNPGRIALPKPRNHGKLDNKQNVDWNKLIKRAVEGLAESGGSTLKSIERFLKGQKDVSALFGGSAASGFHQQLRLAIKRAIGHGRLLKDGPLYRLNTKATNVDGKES
Sequence,E-score
AGCACTTG,-0.172
CCGTATGA,0.154
AGGTTACA,0.00846
AACCAGAT,-0.177
AAGTTGAC,-0.0489
AAGAGCAA,-0.164
CTATGAAG,-0.0419
AGTCCCTC,-0.0676
CACTAGAG,-0.0946
CCACGCTC,0.0134
ATGGTATG,-0.0598
CACCGAGA,-0.104
GACAATGC,-0.0318
CCGCCGCC,0.339
ATATTATC,0.0207
GCAGGCCA,-0.0808
GTGCATCA,-0.0577
ATGTTGCG,0.127
CTCGTTCA,0.0103
AAAGCGGC,0.295
CAACTGAA,-0.0382

# Series 2
# Target: RNA binding protein fox-1 homolog 2, RRM domain, GST-SBP tag (RBFOX2, Homo sapiens, UniProt O43251-10, residues 100-194)
# Technique: RNA Bind-n-Seq
# Molecule type: RNA
# Matrix: in vitro
# Tested at: 365 nM
# Notes: natural RNA segment, single round, ends assumed
# Relative to: no-protein control
# Reading: higher = stronger binding
# Shared flanks, not repeated: GGGAGUUCUACAGUCCGACGAUC … UGGAAUUCUCGGGUGCCAA
# Residues (chain): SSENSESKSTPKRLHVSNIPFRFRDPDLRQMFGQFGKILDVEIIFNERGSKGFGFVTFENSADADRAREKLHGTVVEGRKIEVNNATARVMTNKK
Sequence,RBNS enrichment (R)
UGGUUAUCUUCCAUUGUGUUUUUCUUUAUGGACAGGAGCUAAUGGAAGUGACAGUCAUGUUCAAAGGAAGCAUUUCUAGAAAAAAGGAGAUAAUGUUUUUAAAUUUCAUU,0.628
GCAAGAGGUUUCUUGUGGAAAUUAUGUCCUUUCUGAGAGGAGCUGGGGAUUAGAUGCUCCUGCAUUUGUGAAAUGGUUAUAAGCAUAGAAAAAUAGGUGGUAAGCUUUCC,1.35
CACUGAUACCUGCGUUAACAUACUUUGUUUUGCCUAGAGAGGGGCAAUAAAAAUGAACCAAAGGAUAUUUCCAGAAAGGAUUAAGAAAGCUGUUUAAGAAGGCCAUGACU,0.383
UGAGCUGCUACAAAAUGAAGCAAAAACACUCUUGGCUCAAGCUAACAGCAAGCUCCAGCUGUUGGAAGGCUUAGAAAGAAAAUAUGAGGACAAUCAAAAAUACUUAGAAG,0.386
UAAAAUAACCCAUUUGUUCACAGUUCUAAAACUAACUGGUUAAUAGGCUAAUGAUGUUCACUCAUUCUUUGAGGCAGUAGUUACCUAGGCAGACACUUUAGGUUGGUACU,0.355
UGUAAGCACAGAUGAUGAUCUAGCUUGCUUCUGUGACAAAUGUUGACCUUUGAGGUCUAAACAAAUAAUACCCCCGUCGGAAUGGUAACCGAGCCAGCAGCUGAAGUCUC,0.279
GAAAAAUGCAGAGAAUCAGCCAAACCUUUGUCUCUCUGUAUUUUGGCAACAUGAACUGGGAAACAGAGCUCUCUCUGCCUAGAGAAAGGAGCGGCCCUCAAGAUCUCUUU,0.21
AGGAGCCCAAACACCUUGGUCUUCCUGGGUGGGGGCAUAAUUAAGGGAAGGGAGUGUAUAAGGAAGGAAACCUCAUACCCUCCAUUCCCAUCCCUGGAUAUAUUGCCUUU,0.209
GGAGCCUGUCAGGUUUUGAGAGCUUGAUUUUAUGGUGGGUUUUGGAUUUAGUUUCCUUUUUCCUUUUUUAAAUAUUGGUUUUAAAAAGGGAGCCUGAUGCCCCCAAUUGG,0.351
GGGGCGUCGCCCCUGCUGGCCGCCGCGUCCCCCGAGAUUGACCCACAAUAAAGCACAGGCCUUACCGCGGCGUCACCCUCUCCCACUCCUUUGUUCUGGGUCCUUUCGGG,0.428
CCAUCCAGUUGUUUCUGGGCUGUGCGAGAGAUCAUACAUUGAUCUGUGUGUGAUGAGUUGAGGGCUUUCCCACCUGCACGGGCCUUCACGGGCUCCACGCUUUUGCUGUC,0.539
ACUGCUGAGGACCCACCCAAUGGAAGGAUUCUUCUCAGCCUUGACCCUGGAGCACUGGGAACAACUGGUCUCCUGUGAUGGCUGGGACUCCUCGCGGGAGGGGACUGCGC,0.317

# Series 3
# Target: RING finger protein unkempt homolog, zinc fingers 1-6, GST-SBP tag (UNK, Homo sapiens, UniProt Q9C0B0, residues 30-357)
# Chain of UniProt Q9C0B0 (30-357, looked up): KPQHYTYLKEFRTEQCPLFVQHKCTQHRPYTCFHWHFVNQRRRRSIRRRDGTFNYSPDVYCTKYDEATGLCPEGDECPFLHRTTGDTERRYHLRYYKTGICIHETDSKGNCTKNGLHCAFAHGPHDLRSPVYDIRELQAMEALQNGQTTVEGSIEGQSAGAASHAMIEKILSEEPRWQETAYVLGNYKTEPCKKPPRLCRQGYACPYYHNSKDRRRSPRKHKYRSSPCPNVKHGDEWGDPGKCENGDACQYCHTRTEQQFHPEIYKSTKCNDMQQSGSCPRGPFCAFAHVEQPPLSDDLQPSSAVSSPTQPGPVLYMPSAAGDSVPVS
# Technique: RNA Bind-n-Seq
# Molecule type: RNA
# Matrix: in vitro
# Tested at: not given
# Notes: RNA with constant flanks, human-mouse chimeric sites, ends assumed
# Relative to: input RNA pool
# Reading: higher = stronger binding
# Shared flanks, not repeated: GGGAGUUCUACAGUCCGACGAUC … CAACAGAGGAUUGAGCAUCA
Sequence,bound/input enrichment
UGGCGCCUGCGCUCCCCACUCGUGUUUUUAAGUGUAUUUUUAUAAGAUACAUGUAUUUACAAUUGAGCUUUUGUUACAUAAUGCUGAAAUGCUACUGCAAUAUUAUGAAAAUGUUUCAAU,0.105 ratio
CUUAAUGUUAAUAUUUUUGAAUAAAUGAAGCUAAAAUGUCUGCUUUUGGUACAACACGCAUUAGCGAAAGGUUAAGUAAGUUUUGUUACUGAAGUACUAUUUAACAUCUCAGAAAAAAAC,0.392 ratio
GCAAAGGAUGAUGAGGCGGCAGCUGUUGCCCUUUCCUCUCUCGUUCAUGCUUUGGAUGAGUUAAACAUGGUCGCCAUCGUCCGAUAUGCUUAUGACAAAAGAGCUAAUCCUCAAGUCGGU,0.515 ratio
CCAAUUGUGGAGCAGUACUUGAAGACAAAGAAAAAUUCUAAUAAUUUAAUCAUCAAGUACAUUAGCUGCCGCCUGCUGACACUCAUCAUUAUACUGUUGGCAUGUAUCUACUUGAGCUAU,0.22 ratio
AACGUGGAACUAAGUUCGCUGGCCCGGCUUCCCAGCUUGAAUAAACUCCGGAAGUUGGAACUUAGUGACAAUAUAAUUUCUGGAGGCUUGGAAGUCCUGGCAGAGAAAUGUCCAAAUCUU,0.295 ratio
UUGGAAGGACCAGAGCCUAAUCAACUGAAACCAUUAGUCAUACAGGCUAUGCCCACCCUAAUAGAAUUAAUGAAAGACCCCAGUGUAGUUGUUCGAGACACAACAGCGUGGACUGUGGGC,1.82 ratio
GUGACUGGUGUUAAGAUUUACCCUCAGAAAAGAACUGCAGUAGUCACCAUAAUUCCAUCUGUGGUGAGUGCCAGUCAGAUUGUGGAGCUGGUCCCAGACCUCAGUUUAGACAUGGGAACU,0.285 ratio
AAUAGAGGAUUAUAUUCCCAAAGUGCUGGGAGUAAAGGUGUGGCCACCACACCUAACUUGAUGGAUAUAUAUUUUUUUUAAUAUGAAUCUUCCUGUUCGUCCAGGGAAGAAAGAUUUGUU,1.73 ratio
UUUGUAUUCAUGUUAAGCACACGUGCUGGUGGUCUGGGCAUCAAUCUUGCAACUGCUGAUGUAGUAAUUUUAUAUGACUCAGAUUGGAAUCCGCAAGUUGAUCUUCAGGCUAUGGACCGU,0.791 ratio
GUGACAGGUGUUAAGAUUUCCCCUCAGCAAAGAAGUGCAGUAGUCACAAUAAUCCCUUCUGUGGUGAGUGCCAGUCAGAUUGUGGAGCUGGUCCCAGACCUCAGUUUAGACAUGGGAACU,0.315 ratio
GGACAUCUGUCAAAUUGUUAUGUUCCUGUGAAACAAGUGAACACUCUGAUACACUUCAUCUGCUUGUACAUUUAACUGAUAGAGAAACAGAAAUCUAUUAAUCCAAGCAAUGUGUCACUU,0.147 ratio

# Series 4
# Target: Prothrombin, mature alpha-thrombin (F2, Homo sapiens, UniProt P00734)
# Technique: aptamer microarray, sandwich
# Molecule type: DNA with 2'F-ANA
# Matrix: in vitro
# Tested at: 200 nM
# Notes: whole 15-mer aptamer, many near background
# Together with: Cy3 exosite-II aptamer, 400 nM
# Reading: higher = stronger binding
# Sequence: GGTTGGTGTGGTTGG
Modification,mean fluorescence intensity [a.u.]
2'F-ANA at 3 5 6 9 10 13 14 15,53.8
2'F-ANA at 4 6 7 9,262
2'F-ANA at 1 2 3 7 8 10 12 14,57.2
2'F-ANA at 2 5 6 7 11 13,53.9
2'F-ANA at 1 2 3 6 8 9 10 11 14,51.3
2'F-ANA at 1 2 3 13,178
2'F-ANA at 2 6 7 8 9 10 11 12,138
2'F-ANA at 1 2 8 11 13 14 15,57.7
2'F-ANA at 1 3 5 8 14,46.3
2'F-ANA at 3 4 5 6 8 11 14,52.1
2'F-ANA at 1 2 4 5 7 9 11 13 15,50.6
2'F-ANA at 1 2 3 6 8 10 13,61.2
2'F-ANA at 3 5 8 13 15,98.6
2'F-ANA at 2 3 6 14,383
2'F-ANA at 1 2 3 5 6 10 13 14,43.6
2'F-ANA at 1 2 3 5 10 11,49.9
2'F-ANA at 3 5 7 9 12 13 14 15,62.1
2'F-ANA at 1 3 4 5 6 9 10 11 12 14,49.1
2'F-ANA at 4 7 9 10 12 14 15,72.9
2'F-ANA at 1 3 5 9 10 13 14,45.5

# Series 5
# Target: Interferon regulatory factor 3, full length, phosphomimetic (IRF3, Homo sapiens, UniProt Q14653, residues 1-427, S386D/S396D/S398D/S402D/T404D/S405D)
# Technique: protein-binding microarray
# Molecule type: double-stranded DNA, one strand shown
# Matrix: in vitro
# Tested at: 2540 nM top
# Notes: 60-bp whole probe
# Together with: salmon DNA 0.4 mg/ml
# Relative to: random background probes
# Reading: higher = stronger binding
# Shared flanks, not repeated: GCCTAGCAC … GTCTTGATTCGCTTGACGCTGCTG
# Target sequence (chain): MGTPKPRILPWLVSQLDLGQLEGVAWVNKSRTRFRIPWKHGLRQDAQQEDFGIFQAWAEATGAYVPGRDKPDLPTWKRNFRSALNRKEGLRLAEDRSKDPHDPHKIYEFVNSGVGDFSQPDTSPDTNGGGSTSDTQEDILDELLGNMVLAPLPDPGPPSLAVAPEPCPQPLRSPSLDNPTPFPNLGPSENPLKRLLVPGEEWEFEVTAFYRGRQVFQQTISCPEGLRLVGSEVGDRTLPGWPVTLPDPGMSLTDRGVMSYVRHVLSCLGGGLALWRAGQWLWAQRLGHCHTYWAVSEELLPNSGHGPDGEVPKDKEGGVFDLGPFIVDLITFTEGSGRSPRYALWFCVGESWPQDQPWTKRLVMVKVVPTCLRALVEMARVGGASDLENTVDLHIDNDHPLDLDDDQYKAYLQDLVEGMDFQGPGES
Sequence,fitted relative affinity
CGAGTTTCTATTTTCTGAATGTGCTAG,4.58 z-score
GATGATCTCAGTTTCGAGACGTGCTAG,2.25 z-score
TTAGGTATCGACTCTCGGTTAGTGCTA,0.882 z-score
TCAATTTTTTTTATTTAACTGTGCTAG,0.462 z-score
TTAGGTTTCCTTCTCCTTGAGTGCTAG,10.4 z-score
CAGAATCCCCTTCTACTCTCGTGCTAG,2.47 z-score
TTAGGACTGTGTTTCGGTTAGTGCTAG,2.9 z-score
GACGGTCTCGGACTGGGTACGTGCTAG,0.131 z-score
TTAGATTTCAGTACCGATTAGTGCTAG,1.81 z-score
TTAGAACTGGGGCCTGGATTAGTGCTA,-1.05 z-score
TTACATTTTAATTTTATTTGGTGCTAG,1.67 z-score
GACGGTATCGGGTATCCGGACGTGCTA,2.21 z-score
GACGAACTGGGGTATCGATACGTGCTA,-0.00898 z-score
GCCTTTTTTTTTTTTTCTGAGTGCTAG,2.12 z-score
GGATGACTCCCTCTCTGGCCGTGCTAG,0.306 z-score
GACGATATCTGGTATCGAGACGTGCTA,0.264 z-score
TTAGGACTGGGTTTCGCTTAGTGCTAG,1.11 z-score
GACGGACTGATTTTCCTGACGTGCTAG,0.203 z-score
AGCAGTTGGACCTCTCAGCCAGTGCTA,-1.07 z-score
TTAGGTTCCGGTTTAGGTTAGTGCTAG,4.59 z-score

# A few entries again (series 3):
Sequence,bound/input enrichment
AACGUGGAACUAAGUUCGCUGGCCCGGCUUCCCAGCUUGAAUAAACUCCGGAAGUUGGAACUUAGUGACAAUAUAAUUUCUGGAGGCUUGGAAGUCCUGGCAGAGAAAUGUCCAAAUCUU,0.295 ratio
UUGGAAGGACCAGAGCCUAAUCAACUGAAACCAUUAGUCAUACAGGCUAUGCCCACCCUAAUAGAAUUAAUGAAAGACCCCAGUGUAGUUGUUCGAGACACAACAGCGUGGACUGUGGGC,1.82 ratio
GUGACUGGUGUUAAGAUUUACCCUCAGAAAAGAACUGCAGUAGUCACCAUAAUUCCAUCUGUGGUGAGUGCCAGUCAGAUUGUGGAGCUGGUCCCAGACCUCAGUUUAGACAUGGGAACU,0.285 ratio
AAUAGAGGAUUAUAUUCCCAAAGUGCUGGGAGUAAAGGUGUGGCCACCACACCUAACUUGAUGGAUAUAUAUUUUUUUUAAUAUGAAUCUUCCUGUUCGUCCAGGGAAGAAAGAUUUGUU,1.73 ratio
UUUGUAUUCAUGUUAAGCACACGUGCUGGUGGUCUGGGCAUCAAUCUUGCAACUGCUGAUGUAGUAAUUUUAUAUGACUCAGAUUGGAAUCCGCAAGUUGAUCUUCAGGCUAUGGACCGU,0.791 ratio
